Measured values collected from several papers.
Each numbered part is a random draw from the data of one study; scales do not carry over between parts. Substitutions count along the parent as printed.
UniProt P27448, sequence (whole entry, looked up): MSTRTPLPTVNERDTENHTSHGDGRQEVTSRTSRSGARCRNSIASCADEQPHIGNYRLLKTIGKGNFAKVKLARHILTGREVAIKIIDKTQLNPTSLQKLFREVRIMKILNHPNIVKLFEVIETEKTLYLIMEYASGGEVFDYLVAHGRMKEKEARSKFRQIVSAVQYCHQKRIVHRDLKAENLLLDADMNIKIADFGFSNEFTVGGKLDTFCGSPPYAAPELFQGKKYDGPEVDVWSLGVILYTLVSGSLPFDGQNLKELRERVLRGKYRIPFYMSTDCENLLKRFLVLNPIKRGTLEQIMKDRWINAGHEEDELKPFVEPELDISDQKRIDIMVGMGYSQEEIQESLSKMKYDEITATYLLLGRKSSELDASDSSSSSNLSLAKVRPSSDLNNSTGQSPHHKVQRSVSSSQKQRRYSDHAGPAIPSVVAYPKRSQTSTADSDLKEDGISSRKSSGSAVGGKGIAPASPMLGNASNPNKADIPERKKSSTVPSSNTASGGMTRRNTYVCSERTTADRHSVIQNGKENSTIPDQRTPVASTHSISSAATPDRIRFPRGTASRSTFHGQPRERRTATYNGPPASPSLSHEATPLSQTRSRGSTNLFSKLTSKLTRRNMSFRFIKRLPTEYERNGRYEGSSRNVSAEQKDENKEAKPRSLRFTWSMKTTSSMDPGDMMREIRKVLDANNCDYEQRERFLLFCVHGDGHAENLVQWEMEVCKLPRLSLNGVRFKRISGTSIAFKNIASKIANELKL

Series 1 — target: inorganic phosphate, free oxyanion; technique: microfluidic competitive inhibition; matrix: in vitro, cell-free expressed; tested at: not given; reading: lower = stronger binding; endpoint: phosphate dissociation constant
Setting: derived from inhibition constants, unchanged parent 615000 nM
Starting sequence: PafA, mature enzyme, eGFP fusion (Elizabethkingia meningoseptica, UniProt Q9KJX5); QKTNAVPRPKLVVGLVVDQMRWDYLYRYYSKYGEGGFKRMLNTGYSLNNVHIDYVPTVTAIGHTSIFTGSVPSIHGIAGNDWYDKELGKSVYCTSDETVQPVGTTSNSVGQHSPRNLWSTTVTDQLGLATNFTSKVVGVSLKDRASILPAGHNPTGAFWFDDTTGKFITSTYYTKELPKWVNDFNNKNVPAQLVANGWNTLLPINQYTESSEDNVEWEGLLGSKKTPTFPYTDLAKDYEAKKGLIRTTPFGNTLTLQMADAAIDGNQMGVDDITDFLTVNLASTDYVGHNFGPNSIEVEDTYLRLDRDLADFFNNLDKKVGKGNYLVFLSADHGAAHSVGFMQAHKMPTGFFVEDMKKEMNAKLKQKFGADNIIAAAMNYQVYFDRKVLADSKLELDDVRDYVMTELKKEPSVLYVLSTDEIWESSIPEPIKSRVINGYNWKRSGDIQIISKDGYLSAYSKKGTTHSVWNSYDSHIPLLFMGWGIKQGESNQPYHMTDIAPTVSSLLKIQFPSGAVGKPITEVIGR
Change = I245V; result = 552 µM
Change = N182G; result = 576 µM
Change = I168V; result = 620 µM
Change = A390V; result = 654 µM
Change = R386V; result = 728 µM
Change = F341G; result = 305 µM
Change = P9V; result = 438 µM
Change = L407G; result = 504 µM
Change = A515G; result = 598 µM
Change = M40V; result = 809 µM
Change = G33V; result = 595 µM
Change = V287A; result = 839 µM
Change = L11V; result = 619 µM
Change = T226G; result = 526 µM
Change = P477G; result = 566 µM
Change = S211V; result = 578 µM
Change = G321V; result = 610 µM
Change = V189G; result = 525 µM

Series 2 — technique: protein-binding microarray; form: double-stranded DNA, one strand shown; matrix: in vitro; tested at: not given; reading: higher = stronger binding; endpoint: E-score
Target: Hepatocyte nuclear factor 3-beta, forkhead domain (FOXA2, Homo sapiens, UniProt Q9Y261, residues 142-269)
Setting: k-mer, scored over probes, only values ≥0.25
Construct (chain): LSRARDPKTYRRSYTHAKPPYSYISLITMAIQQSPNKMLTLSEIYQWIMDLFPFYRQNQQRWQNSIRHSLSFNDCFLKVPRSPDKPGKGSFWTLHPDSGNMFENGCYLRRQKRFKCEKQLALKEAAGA
Sequence = ATACCTAC; result = 0.286
Sequence = AGACTATA; result = 0.286
Sequence = ATCTTGCA; result = 0.286
Sequence = TTACACAA; result = 0.284
Sequence = TATATTCA; result = 0.313
Sequence = ATAGTATG; result = 0.296
Sequence = ATTGTTTG; result = 0.331
Sequence = GTAACATA; result = 0.306

Series 3 — observed: binding; technique: phage display NGS; form: peptide; baseline: input library; endpoint: minimum log2 enrichment ratio
Target: UDP-N-acetylglucosamine--peptide N-acetylglucosaminyltransferase 110 kDa subunit (OGT, Homo sapiens, UniProt O15294)
UniProt O15294, sequence (whole entry, looked up): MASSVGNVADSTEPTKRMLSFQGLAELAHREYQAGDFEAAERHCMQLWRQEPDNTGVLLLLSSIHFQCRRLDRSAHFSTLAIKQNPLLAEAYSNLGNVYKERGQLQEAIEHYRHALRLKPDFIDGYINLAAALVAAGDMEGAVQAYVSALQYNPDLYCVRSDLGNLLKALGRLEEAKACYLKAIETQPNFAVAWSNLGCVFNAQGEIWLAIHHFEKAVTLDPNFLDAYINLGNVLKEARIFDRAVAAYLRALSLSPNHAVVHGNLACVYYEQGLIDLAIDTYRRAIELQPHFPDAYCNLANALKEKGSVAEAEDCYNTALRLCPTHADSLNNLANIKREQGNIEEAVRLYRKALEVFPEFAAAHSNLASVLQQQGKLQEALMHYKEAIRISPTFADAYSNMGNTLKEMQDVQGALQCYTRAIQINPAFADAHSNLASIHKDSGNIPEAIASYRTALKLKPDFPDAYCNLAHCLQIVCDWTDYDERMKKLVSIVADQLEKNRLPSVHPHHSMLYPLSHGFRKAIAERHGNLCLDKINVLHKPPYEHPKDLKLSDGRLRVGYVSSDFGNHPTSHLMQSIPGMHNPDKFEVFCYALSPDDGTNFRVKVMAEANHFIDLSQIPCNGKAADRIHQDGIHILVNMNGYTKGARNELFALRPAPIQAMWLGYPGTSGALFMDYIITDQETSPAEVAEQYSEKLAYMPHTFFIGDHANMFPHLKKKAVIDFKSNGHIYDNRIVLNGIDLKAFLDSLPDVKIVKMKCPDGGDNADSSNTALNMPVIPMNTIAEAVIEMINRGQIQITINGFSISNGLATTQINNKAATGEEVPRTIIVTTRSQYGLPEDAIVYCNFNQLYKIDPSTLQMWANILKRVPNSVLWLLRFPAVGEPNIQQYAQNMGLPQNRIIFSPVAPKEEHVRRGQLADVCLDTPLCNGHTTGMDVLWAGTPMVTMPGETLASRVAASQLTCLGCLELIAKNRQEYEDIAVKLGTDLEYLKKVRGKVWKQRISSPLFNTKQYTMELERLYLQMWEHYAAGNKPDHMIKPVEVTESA
Molecule = QHYQHHSHDKSHPYE; result = 2.05
Molecule = TQSFTQFMPQYPIFY; result = 3.03
Molecule = RHPHEHDLHDVITHA; result = 3.18
Molecule = YDNMQYRPQYQIATH; result = 3.07
Molecule = HRVQFPWPHDAGHRH; result = 2.78
Molecule = HRHDYDYQHHLPRYF; result = 2.06
Molecule = IVTGRHPHTTQHYTH; result = 2.41
Molecule = QPQHHMWQHHAYDIK; result = 2.7
Molecule = HQQHDHHKDNNGQFM; result = 1.45
Molecule = HNFFEYHTANRHQHF; result = 3.28
Molecule = QQIPSIMPMYQIVTP; result = 3.55
Molecule = GGGHVMHHYYDKHNP; result = 1.31
Molecule = TSFAPEYIIDYIRPV; result = 3.99
Molecule = NFLPYYLIPVRNGGI; result = 3.41
Molecule = HIHWTGESPSPHWVH; result = 1.32
Molecule = HYIPHFPWQWDFDHH; result = 3.01
Molecule = ESKQTRFHPQYQITI; result = 4.25
Molecule = HQYHHFRDNYNQIFM; result = 3.42
Molecule = SYYPYYQISLPEQVR; result = 3.38
Molecule = HNYHNHRVQMEYRGE; result = 2.51
Molecule = SPFMPMYPIVPNRSD; result = 5.07
Molecule = HFQIHQHHFMGDDD; result = 3.27
Molecule = HVRWHHSDAPYWTDI; result = 2.45

Further values, each from its own experiment
Structure (SMILES) = COC[C@H]1OC(=O)c2coc3c2[C@@]1(C)C1=C(C3=O)[C@@H]2CCC(=O)[C@@]2(C)C[C@H]1OC(C)=O; target = MAP/microtubule affinity-regulating kinase 3 (MARK3, Homo sapiens, UniProt P27448); observed = enzyme activity; action = inhibitor; tested at = 0.5 µM; baseline = control; endpoint = remaining activity; result = 112%

Excerpt of the above (series 2):
Sequence = ATACCTAC; result = 0.286
Sequence = AGACTATA; result = 0.286
Sequence = ATCTTGCA; result = 0.286
Sequence = TTACACAA; result = 0.284
Sequence = TATATTCA; result = 0.313
Sequence = ATAGTATG; result = 0.296
Sequence = ATTGTTTG; result = 0.331
Sequence = GTAACATA; result = 0.306
